Measured values pooled from the literature.
“And” joins repeats or separate records; there may be more than shown. ± gives the spread as reported.

Structure (SMILES) | system | conditions | tissue uptake
COc1ccc(Nc2nc(Nc3ccc(OCCOCC[18F])cc3)ncc2Br)cc1 | ICR mice, S180 tumour-bearing, bone | intravenous, 370 kBq, 5 min | 2.52 ± 0.2 %ID/g
N#C[C@@H]1CC(F)(F)CN1C(=O)CNC(=O)c1ccnc2c(NC(=O)[C@H](CCCCNC(=O)CCOCCOCCOCCOCCOCCOCCNC(=O)CN3CCN(CC(=O)[O-])CCN(CC(=O)[O-])CCN(CC(=O)[O-])CC3)NC(=O)CCCc3ccc(I)cc3)cccc12.[177Lu+3] | mouse, U-87 MG tumour xenograft, brain | 72 h | 0.04 ± 0.1 %ID/g
[11CH3]N1CCC(NC(=O)c2cc(-c3c(O)cc(O)cc3Oc3ccc([N+](=O)[O-])cc3)on2)CC1 | Wistar rat, female, healthy, spleen | intravenous, 30 min | 0.4 %ID
O=C(O)CCCOc1ccc([18F])cc1-c1cc(-c2ccccc2C(F)(F)F)n(-c2ccccc2)n1 | mouse, bladder | intravenous, dose not given, 15 min | 0.03 ± 0.01 %ID/g
COc1ccc2c(c1)C(C)(C)C(/C=C/C1=C(Oc3ccc(C(=O)NCCCCOc4cc(CN(Cc5ccccn5)Cc5ccccn5)cc(CN(Cc5ccccn5)Cc5ccccn5)c4)cc3)C(=C/C=C3/N(CCCCS(=O)(=O)[O-])c4ccc(OC)cc4C3(C)C)CCC1)=[N+]2CCCCS(=O)(=O)[O-].O=[N+]([O-])[O-].O=[N+]([O-])[O-].[99Tc+].[C-]#[O+].[C-]#[O+].[C-]#[O+].[Zn+2] | healthy BALB/c mice, spleen | 12 h | 10.8 %ID/g and 6.77 %ID/g and 7.83 %ID/g and 11.6 %ID/g
Cc1cc(C)n(CCN(CCN)CCCCCCNC(=O)[C@@H](N)Cc2c[nH]cn2)n1.[99Tc+].[C-]#[O+].[C-]#[O+].[C-]#[O+] | BALB/c nude mice MCF7 xenograft, brain | intravenous, 15 min | 0.16 ± 0.01 %ID/g
[123I]c1ccc2nc(-c3ccc(-n4ccnn4)nc3)cn2c1 | male Wistar rat, small intestine | intravenous, 4 MBq, 30 min | 9.77 ± 3.8 %ID/g
COc1cccc(OC)c1-c1cc(C(=O)NC2(C(=O)O)C3CC4CC(C3)CC2C4)nn1-c1ccc(C(=O)NCCNC(=O)[C@H](CCCCNC(=O)[C@H](CC(C)C)NC(=O)C2OC2C(=O)O)NC(=O)CN2CCN(CC(=O)[O-])CCN(CC(=O)[O-])CCN(CC(=O)[O-])CC2)cc1C(C)C.[177Lu+3] (mixture of isomers) | mouse, HT-29 xenograft, liver | 24 h post injection | 1.09 %ID/g
O=C(NCC1OC2CCC=CCCC2O1)c1ccc([18F])nc1 (centres unmarked) | healthy female BALB/c nude mice, kidneys | intravenous, 7.4 MBq per mouse, 5 min | 11.3 ± 2.3 %ID/g
COc1cccc(OC)c1-c1cc(C(=O)NC2(C(=O)O)C3CC4CC(C3)CC2C4)nn1-c1ccc(C(=O)N(C)CCOCCOCCN(C)C(=O)[C@H](CCCCNC(=O)[C@H](CC(C)C)NC(=O)C2OC2C(=O)O)NC(=O)CN2CCN(CC(=O)[O-])CCN(CC(=O)[O-])CCN(CC(=O)[O-])CC2)cc1C(C)C.[177Lu+3] (mixture of isomers) | mouse, HT-29 xenograft, heart | 24 h post injection | 0.29 %ID/g
CCCC[C@H](NC(=O)CCCCCCCNC(=O)CN1CCN(CC(=O)O)CCN(CC(=O)O)CC1)C(=O)N[C@H]1CC(=O)NCCCC[C@@H](C(N)=O)NC(=O)[C@H](Cc2c[nH]c3ccccc23)NC(=O)[C@H](CCCNC(=N)N)NC(=O)[C@@H](Cc2ccccc2)NC(=O)[C@H](Cc2c[nH]cn2)NC1=O [fluorine-18 labelled] | C57 mice B16-F10 melanoma, kidneys | intravenous, 0.37 MBq, 2 h | 4.22 ± 0.37 %ID/g
CC(C)Cc1ccc(C(C)C(=O)N[C@@H](CCCCNC(=O)CCOCCOCCOCCOCCOCCOCCNC(=O)CN2CCN(CC(=O)[O-])CCN(CC(=O)[O-])CCN(CC(=O)[O-])CC2)C(=O)Nc2cccc3c(C(=O)NCC(=O)N4CC(F)(F)C[C@H]4C#N)ccnc23)cc1.[177Lu+3] (some centres unmarked) | mouse, U-87 MG tumour xenograft, spleen | 4 h | 1.88 ± 0.3 %ID/g
COc1cccc(OC)c1-c1cc(C(=O)NC2(C(=O)O)C3CC4CC(C3)CC2C4)nn1-c1ccc(C(=O)N(C)CCCN(C)C(=O)[C@H](CCCCNC(=O)[C@H](CC(C)C)NC(=O)C2OC2C(=O)O)NC(=O)CN2CCN(CC(=O)[O-])CCN(CC(=O)[O-])CCN(CC(=O)[O-])CC2)cc1C(C)C.[177Lu+3] (mixture of isomers) | mouse, HT-29 xenograft, liver | 168 h post injection | 0.76 %ID/g
N#C[C@@H]1CC(F)(F)CN1C(=O)CNC(=O)c1ccnc2c(NC(=O)CCOCCOCCOCCOCCOCCOCCNC(=O)[C@H](CCCCNC(=O)CN3CCN(CC(=O)[O-])CCN(CC(=O)[O-])CCN(CC(=O)[O-])CC3)NC(=O)CCCc3ccc(I)cc3)cccc12.[177Lu+3] | mouse, U-87 MG tumour xenograft, lung | 24 h | 0.42 ± 0.09 %ID/g
COc1cccc(OC)c1-c1cc(C(=O)NC2(C(=O)O)C3CC4CC(C3)CC2C4)nn1-c1ccc(C(=O)N(C)CCOCCN(C)C(=O)[C@H](CCCCNC(=O)[C@H](CC(C)C)NC(=O)C2OC2C(=O)O)NC(=O)CN2CCN(CC(=O)[O-])CCN(CC(=O)[O-])CCN(CC(=O)[O-])CC2)cc1C(C)C.[177Lu+3] (mixture of isomers) | mouse HT-29 xenograft, small intestine | 24 h post injection, biodistribution | 0.192 %ID/g
N#C[C@@H]1CC(F)(F)CN1C(=O)CNC(=O)c1ccnc2c(NC(=O)[C@@H](N)CCCCNC(=O)CCOCCOCCOCCOCCOCCOCCNC(=O)CN3CCN(CC(=O)[O-])CCN(CC(=O)[O-])CCN(CC(=O)[O-])CC3)cccc12.[177Lu+3] | mouse, U-87 MG tumour xenograft, lung | 48 h | 0.1 ± 0.03 %ID/g
COc1cccc(OC)c1-c1cc(C(=O)NC2(C(=O)O)C3CC4CC(C3)CC2C4)nn1-c1ccc(C(=O)N(C)CCCN(C)CCCN(C)C(=O)[C@H](CCCCNC(=O)[C@H](CC(C)C)NC(=O)C2OC2C(=O)O)NC(=O)CN2CCN(CC(=O)[O-])CCN(CC(=O)[O-])CCN(CC(=O)[O-])CC2)cc1C(C)C.[177Lu+3] (mixture of isomers) | mouse, HT-29 xenograft, heart | 4 h post injection | 2.2 %ID/g

Some of these lines once more:
Structure (SMILES) | system | conditions | tissue uptake
COc1ccc2c(c1)C(C)(C)C(/C=C/C1=C(Oc3ccc(C(=O)NCCCCOc4cc(CN(Cc5ccccn5)Cc5ccccn5)cc(CN(Cc5ccccn5)Cc5ccccn5)c4)cc3)C(=C/C=C3/N(CCCCS(=O)(=O)[O-])c4ccc(OC)cc4C3(C)C)CCC1)=[N+]2CCCCS(=O)(=O)[O-].O=[N+]([O-])[O-].O=[N+]([O-])[O-].[99Tc+].[C-]#[O+].[C-]#[O+].[C-]#[O+].[Zn+2] | healthy BALB/c mice, spleen | 12 h | 10.8 %ID/g and 6.77 %ID/g and 7.83 %ID/g and 11.6 %ID/g
Cc1cc(C)n(CCN(CCN)CCCCCCNC(=O)[C@@H](N)Cc2c[nH]cn2)n1.[99Tc+].[C-]#[O+].[C-]#[O+].[C-]#[O+] | BALB/c nude mice MCF7 xenograft, brain | intravenous, 15 min | 0.16 ± 0.01 %ID/g
